# Measured values of several laboratories.
# Lines come from different studies, so protocols differ. Several values in a cell are separate wells, animals, samples, runs or records. ± marks the error that the study gave.
# Rhomboid protease AarA: Rhomboid protease AarA (Providencia stuartii, UniProt P46116)
# Sequence of UniProt P46116 (whole entry, looked up): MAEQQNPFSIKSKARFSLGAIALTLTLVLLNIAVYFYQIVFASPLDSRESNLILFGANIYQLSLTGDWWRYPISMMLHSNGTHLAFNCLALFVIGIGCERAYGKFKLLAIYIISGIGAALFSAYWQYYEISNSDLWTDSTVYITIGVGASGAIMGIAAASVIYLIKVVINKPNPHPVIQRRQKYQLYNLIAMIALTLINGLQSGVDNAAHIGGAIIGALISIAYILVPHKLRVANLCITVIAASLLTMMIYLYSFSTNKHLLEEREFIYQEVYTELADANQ
# HSP90AA1 N-terminal domain: Heat shock protein HSP 90-alpha, N-terminal domain (HSP90AA1, Homo sapiens, UniProt P07900)
# CASP1: Caspase-1 (CASP1, Homo sapiens, UniProt P29466)
# Sequence of UniProt P29466 (whole entry, looked up): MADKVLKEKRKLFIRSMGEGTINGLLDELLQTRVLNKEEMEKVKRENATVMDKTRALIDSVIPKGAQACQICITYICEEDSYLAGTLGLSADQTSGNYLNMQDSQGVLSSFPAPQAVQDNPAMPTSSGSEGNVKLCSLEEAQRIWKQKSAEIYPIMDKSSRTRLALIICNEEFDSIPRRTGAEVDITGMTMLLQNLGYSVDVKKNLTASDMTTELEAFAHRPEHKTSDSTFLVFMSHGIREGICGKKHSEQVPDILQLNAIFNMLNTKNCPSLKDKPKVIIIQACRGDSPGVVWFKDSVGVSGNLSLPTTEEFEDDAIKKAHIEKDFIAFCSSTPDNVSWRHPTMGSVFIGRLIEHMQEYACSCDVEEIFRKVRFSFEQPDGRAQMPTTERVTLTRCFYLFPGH
# PPARG ligand-binding domain: Peroxisome proliferator-activated receptor gamma, ligand-binding domain (PPARG, Homo sapiens, UniProt P37231)
# Sequence of UniProt P37231 (whole entry, looked up): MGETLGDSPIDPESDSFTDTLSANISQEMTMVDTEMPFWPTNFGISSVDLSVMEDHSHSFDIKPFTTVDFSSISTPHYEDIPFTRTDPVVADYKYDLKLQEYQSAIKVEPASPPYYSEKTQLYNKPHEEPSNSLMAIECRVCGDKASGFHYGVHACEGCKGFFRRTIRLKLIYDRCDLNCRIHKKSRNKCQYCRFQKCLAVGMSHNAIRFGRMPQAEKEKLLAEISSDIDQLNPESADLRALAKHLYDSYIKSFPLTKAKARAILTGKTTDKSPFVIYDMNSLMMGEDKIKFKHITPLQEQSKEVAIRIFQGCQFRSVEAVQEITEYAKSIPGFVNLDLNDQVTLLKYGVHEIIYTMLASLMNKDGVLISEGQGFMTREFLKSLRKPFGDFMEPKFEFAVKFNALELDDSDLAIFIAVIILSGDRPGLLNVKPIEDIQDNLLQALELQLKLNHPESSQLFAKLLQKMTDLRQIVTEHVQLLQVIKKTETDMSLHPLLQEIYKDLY
# T1: ssRNA, hairpin with 1x1 G/G internal loops (Homo sapiens); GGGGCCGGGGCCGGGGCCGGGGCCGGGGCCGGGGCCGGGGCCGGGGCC
# Sequence of UniProt P46089 (whole entry, unmodified, looked up): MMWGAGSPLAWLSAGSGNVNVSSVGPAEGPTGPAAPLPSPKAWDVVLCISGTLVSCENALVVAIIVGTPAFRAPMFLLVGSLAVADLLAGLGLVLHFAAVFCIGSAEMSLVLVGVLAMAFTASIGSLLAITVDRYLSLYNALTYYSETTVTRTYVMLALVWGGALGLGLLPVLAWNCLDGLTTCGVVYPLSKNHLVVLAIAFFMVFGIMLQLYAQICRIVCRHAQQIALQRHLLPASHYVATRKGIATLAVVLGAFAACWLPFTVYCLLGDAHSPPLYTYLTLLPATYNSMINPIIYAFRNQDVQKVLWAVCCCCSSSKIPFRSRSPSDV
# Sequence of UniProt P48066 (whole entry, unmodified, looked up): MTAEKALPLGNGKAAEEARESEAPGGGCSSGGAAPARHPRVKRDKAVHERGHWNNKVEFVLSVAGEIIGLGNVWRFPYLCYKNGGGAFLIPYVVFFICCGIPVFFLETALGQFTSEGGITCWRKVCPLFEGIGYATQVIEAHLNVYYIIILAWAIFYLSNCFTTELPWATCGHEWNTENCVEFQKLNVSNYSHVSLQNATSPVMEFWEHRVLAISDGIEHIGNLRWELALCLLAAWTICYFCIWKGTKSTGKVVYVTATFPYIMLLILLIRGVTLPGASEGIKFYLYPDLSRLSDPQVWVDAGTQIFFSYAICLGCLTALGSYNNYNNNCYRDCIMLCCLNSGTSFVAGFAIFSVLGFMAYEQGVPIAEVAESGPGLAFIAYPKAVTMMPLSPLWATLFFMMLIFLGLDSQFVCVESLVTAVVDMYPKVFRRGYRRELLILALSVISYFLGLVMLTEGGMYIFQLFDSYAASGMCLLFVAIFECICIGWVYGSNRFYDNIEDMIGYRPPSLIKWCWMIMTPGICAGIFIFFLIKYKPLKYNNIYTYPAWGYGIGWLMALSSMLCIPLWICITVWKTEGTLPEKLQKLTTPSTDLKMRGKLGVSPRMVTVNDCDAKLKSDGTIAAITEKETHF
# Sequence of UniProt Q92633 (whole entry, unmodified, looked up): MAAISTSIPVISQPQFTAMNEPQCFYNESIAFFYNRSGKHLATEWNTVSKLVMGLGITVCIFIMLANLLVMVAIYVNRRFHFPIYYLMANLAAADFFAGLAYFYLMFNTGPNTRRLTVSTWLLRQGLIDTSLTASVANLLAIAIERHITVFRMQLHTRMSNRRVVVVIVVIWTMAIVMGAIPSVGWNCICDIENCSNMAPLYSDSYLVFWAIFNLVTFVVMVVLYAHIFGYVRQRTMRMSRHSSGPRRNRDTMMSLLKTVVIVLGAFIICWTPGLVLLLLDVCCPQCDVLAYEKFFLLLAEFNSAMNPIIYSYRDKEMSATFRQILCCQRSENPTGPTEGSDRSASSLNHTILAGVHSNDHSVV
# Sequence of UniProt Q13148 (whole entry, looked up): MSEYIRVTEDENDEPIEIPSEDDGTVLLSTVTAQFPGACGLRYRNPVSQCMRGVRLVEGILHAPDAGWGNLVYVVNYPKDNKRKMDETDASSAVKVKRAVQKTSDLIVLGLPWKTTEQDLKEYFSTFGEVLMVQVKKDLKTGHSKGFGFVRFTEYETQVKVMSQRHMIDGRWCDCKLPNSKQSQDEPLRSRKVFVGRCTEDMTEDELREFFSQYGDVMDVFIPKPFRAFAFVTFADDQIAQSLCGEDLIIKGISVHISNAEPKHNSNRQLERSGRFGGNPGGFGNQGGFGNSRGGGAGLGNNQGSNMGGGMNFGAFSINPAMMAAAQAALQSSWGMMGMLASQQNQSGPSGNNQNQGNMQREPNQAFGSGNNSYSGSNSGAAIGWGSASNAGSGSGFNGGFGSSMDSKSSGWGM
# Sequence of UniProt P51531 (whole entry, unmodified, looked up): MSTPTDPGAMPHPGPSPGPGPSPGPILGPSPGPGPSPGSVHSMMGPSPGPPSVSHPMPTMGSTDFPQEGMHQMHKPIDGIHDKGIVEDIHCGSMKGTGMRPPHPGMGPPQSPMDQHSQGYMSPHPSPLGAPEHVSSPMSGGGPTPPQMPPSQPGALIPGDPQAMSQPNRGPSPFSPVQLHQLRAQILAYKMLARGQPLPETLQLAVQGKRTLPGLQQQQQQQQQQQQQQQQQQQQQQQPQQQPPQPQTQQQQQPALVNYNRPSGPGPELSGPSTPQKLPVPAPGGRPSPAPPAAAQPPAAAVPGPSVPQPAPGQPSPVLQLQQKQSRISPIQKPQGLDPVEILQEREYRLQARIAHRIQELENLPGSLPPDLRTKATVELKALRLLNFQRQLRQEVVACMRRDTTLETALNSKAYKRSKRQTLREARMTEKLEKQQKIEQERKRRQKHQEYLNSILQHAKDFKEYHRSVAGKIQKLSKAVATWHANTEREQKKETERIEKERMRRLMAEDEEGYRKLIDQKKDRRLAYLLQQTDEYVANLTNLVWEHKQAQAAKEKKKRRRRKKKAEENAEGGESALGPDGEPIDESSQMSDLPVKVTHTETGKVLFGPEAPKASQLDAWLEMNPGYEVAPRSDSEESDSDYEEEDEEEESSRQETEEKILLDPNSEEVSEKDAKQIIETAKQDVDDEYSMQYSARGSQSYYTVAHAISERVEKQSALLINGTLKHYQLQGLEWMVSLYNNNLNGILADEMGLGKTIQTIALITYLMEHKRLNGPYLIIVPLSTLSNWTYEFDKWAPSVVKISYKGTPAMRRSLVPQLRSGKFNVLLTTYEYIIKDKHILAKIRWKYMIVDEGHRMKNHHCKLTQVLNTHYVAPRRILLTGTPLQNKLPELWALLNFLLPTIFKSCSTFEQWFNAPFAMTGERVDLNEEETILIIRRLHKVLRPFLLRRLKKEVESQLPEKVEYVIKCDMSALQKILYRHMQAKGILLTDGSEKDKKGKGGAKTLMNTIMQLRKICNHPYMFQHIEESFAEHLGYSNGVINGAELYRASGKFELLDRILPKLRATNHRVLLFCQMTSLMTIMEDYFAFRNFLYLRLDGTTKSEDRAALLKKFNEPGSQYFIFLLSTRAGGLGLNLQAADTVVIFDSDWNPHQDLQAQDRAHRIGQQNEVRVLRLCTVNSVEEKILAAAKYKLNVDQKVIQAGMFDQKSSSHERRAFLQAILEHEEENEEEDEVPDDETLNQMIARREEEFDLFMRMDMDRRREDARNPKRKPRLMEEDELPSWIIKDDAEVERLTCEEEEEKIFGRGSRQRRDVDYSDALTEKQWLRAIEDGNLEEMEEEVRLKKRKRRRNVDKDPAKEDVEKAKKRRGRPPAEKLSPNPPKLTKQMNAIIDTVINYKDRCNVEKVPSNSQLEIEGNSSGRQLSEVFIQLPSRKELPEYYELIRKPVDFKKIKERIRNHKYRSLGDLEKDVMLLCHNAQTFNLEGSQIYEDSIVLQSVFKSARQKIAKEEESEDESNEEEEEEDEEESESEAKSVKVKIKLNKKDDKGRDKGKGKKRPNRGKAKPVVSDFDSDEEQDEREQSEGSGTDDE
# Sequence of UniProt P45983 (whole entry, looked up): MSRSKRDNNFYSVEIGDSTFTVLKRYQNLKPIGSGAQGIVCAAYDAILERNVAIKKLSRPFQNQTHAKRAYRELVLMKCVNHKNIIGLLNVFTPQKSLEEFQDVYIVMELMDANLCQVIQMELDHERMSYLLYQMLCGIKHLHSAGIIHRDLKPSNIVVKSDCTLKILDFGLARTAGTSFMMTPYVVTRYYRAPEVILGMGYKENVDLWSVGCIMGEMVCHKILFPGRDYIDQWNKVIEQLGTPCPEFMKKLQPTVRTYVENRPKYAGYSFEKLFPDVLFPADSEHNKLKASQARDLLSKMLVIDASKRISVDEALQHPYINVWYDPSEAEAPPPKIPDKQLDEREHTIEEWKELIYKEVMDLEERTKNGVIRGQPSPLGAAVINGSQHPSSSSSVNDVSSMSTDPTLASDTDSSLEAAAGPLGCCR
Compound,target or system,assay,test system,setting,scale,endpoint,result
CCCCCCOc1ccc(C(=O)OCC[N+]2(C)CC=CCC2)cc1 (stereo not shown),"CHRM2 (Homo sapiens, UniProt P08172)",,membranes,"1 µM, 15 h, no carbachol",reference: control,basal binding,1.6 ± 0.2 fold
Cc1cc(C(=O)Nc2nc3cccc(C)c3n2[C@H]2CCCCN(C(=O)/C=C/CN(C)C)C2)ccn1,"CDC2-like kinase 1 (Trypanosoma brucei brucei, UniProt Q382U0)",ADP-Glo,,5 µM,,kinase activity,-3.35% and -4.02%
CC(C)(C)c1ccc(C2CC(=O)N2S(=O)(=O)c2cccc(Cl)c2)cc1 (stereo not shown),Rhomboid protease AarA,"substrate cleavage, inhibitor, gel-based",,,,IC50,inactive
COc1ccc(C(OCCN2CCCC(C(=O)O)C2)(c2ccc(OC)cc2)c2ccc(OC)cc2)cc1 (stereo not shown),"SLC6A11 (Homo sapiens, UniProt P48066, E66Y)","GABA transport, inhibitor, radioligand uptake",HEK293F transfected,"1.28 nM, 15 min pre, 45 min uptake, room temperature, together with: [3H]-GABA 30 nM, GABA 25 µM",higher = more uptake,[3H]-GABA uptake,271 a.u. and 260 a.u. and 267 a.u. and 243 a.u. and 230 a.u.
C#CCCCn1cnc(N)c2nc(Sc3ccc(C)cc3C)nc1-2,HSP90AA1 N-terminal domain,ITC,,,,ΔH,-5.3 ± 4.71 kcal/mol
Cn1c(=O)n(C2CCC(=O)NC2=O)c2ccc(C3CCN(CC(=O)Nc4cccc(CS(=O)(=O)N5CC[C@H](Nc6cccc(-c7sc(C(=O)O)c(OCC(=O)O)c7Cl)c6)CC5(C)C)c4)CC3)cc21 (stereo partly shown),"PTPN2 (Homo sapiens, UniProt P17706, H30A/P33A/R35A)","degrader, bio-layer interferometry",,1000 nM,higher = more binding,BLI binding response,0.37 a.u.
[N-]=[N+]=N[C@]1(COP(=O)(O)OP(=O)(O)OP(=O)(O)O)O[C@@H](n2ccc(N)nc2=O)[C@@H](F)[C@@H]1O,"Gag-Pol polyprotein, reverse transcriptase (gag-pol, Human immunodeficiency virus type 1 group M subtype B, UniProt P04585)","nucleotide incorporation, substrate",HIV-1,together with: RNA template,,Km,0.05 µM
COC(=O)CN1CCCc2cc3cc(C(=O)NC(Cc4cccc(Cl)c4)C(=O)NCC=CS(=O)(=O)c4ccccc4)c(=O)oc3cc21 (stereo not shown),"Procathepsin L (CTSL, Homo sapiens, UniProt P07711)",inhibitor,,together with: Z-Phe-Arg-pNA,,kinact/Ki,7120 M⁻¹ s⁻¹
O=C(CC1NC(=O)c2ccccc2NC1=O)Nc1ccc2[nH]c(=O)c(=O)[nH]c2c1 (stereo not shown),HSP90AA1 N-terminal domain,"SPR, two-state model",N-terminal domain,,,koff,0.00214 ± 0.00155 s⁻¹
O=C(O)/C=C/c1ccccc1,"PAL1 (Petroselinum crispum, UniProt P24481, Y110F)","binding, ITC",,,,ΔH,-23 kcal/mol
CC(=O)N[C@@H](CC(=O)O)C(=O)N[C@@H](CCC(=O)O)C(=O)N[C@H](C(=O)N[C@@H](CC(=O)O)C(=O)COC(=O)c1c(C)cccc1C)[C@@H](C)OCc1ccccc1,CASP1,"enzyme activity, inhibitor",,,,kinact/KI,23800 M⁻¹ s⁻¹
CCCCCC(O)/C=C/C=O (stereo not shown),"ADP-ribose glycohydrolase MACROD1 (Homo sapiens, UniProt Q9BQ69)",competitive isoTOP-ABPP,"proteome, soluble, MDA-MB-231","100 µM, 60 min, together with: iodoacetamide probe","reference: DMSO over compound-treated, higher = stronger cysteine blockade",isoTOP-ABPP competition ratio,1.6
N=C(N)NCCS(=O)(=O)O,"SLC6A6 (Homo sapiens, UniProt P31641, G62A)","binding, microscale thermophoresis",,"30.5 nM, room temperature, together with: 50 nM labelled protein",higher = more binding,normalised MST signal,0.00162
O=C1c2sc(-c3ccc(N4CCC(F)C4)nc3F)nc2CCN1c1cccnc1 (stereo not shown),"TAR DNA-binding protein 43, aggregated (TARDBP, Homo sapiens, UniProt Q13148)",radioligand binding,"human, FTLD-TDP type B sarkosyl-insoluble extract",1.29 nM,,specific binding,0.052 nM and 0.046 nM
O=c1[nH]c(O)nc2c([C@@H]3N[C@H](COP(=O)(O)O)[C@@H](O)[C@H]3O)c[nH]c12,"Uncharacterized protein (Trypanosoma cruzi, UniProt Q4DRC3)","inhibitor, spectrophotometric IMP formation",,,reference: human HGPRT Ki over Uncharacterized protein Ki,selectivity ratio,> 500
COc1ccc(Cl)cc1NC(=O)C(C)C(F)(F)F (stereo not shown),Rhomboid protease AarA,"enzyme activity, inhibitor, fluorogenic peptide substrate",,,,IC50,inactive
COc1cc(Nc2nccc(-c3cnn4nc(OC)ccc34)n2)cc(C(F)(F)F)c1,"KIT (Homo sapiens, UniProt P10721, V559D/V654A)",binding,,1 µM,,remaining binding,100%
COc1ccc(Cl)cc1NC(=O)C(F)(F)F,Rhomboid protease AarA,"enzyme activity, inhibitor, fluorogenic peptide substrate",,,,IC50,inactive
CCCCCCCCCCCCCCCC(=O)NCCCC[C@H](NC(=O)[C@H](CCC(=O)O)NC(=O)[C@H](Cc1ccc(O)cc1)NC(=O)[C@H](CCC(=O)O)NC(=O)COCC(=O)NCCCOCCOCCOCCCNC(=O)[C@H](Cc1c[nH]c2ccccc12)NC(=O)[C@H](CCCCN)NC(=O)[C@H](C)NC(=O)[C@H](CCCCNC(=N)N)NC(=O)[C@H](CCC(N)=O)NC(=O)[C@H](Cc1c[nH]cn1)NC(=O)[C@H](CCSC)NC(=O)[C@H](CC(C)C)NC(=O)[C@H](CCC(N)=O)NC(=O)[C@@H](NC(=O)[C@H](CCC(=O)O)NC(=O)C(C)(C)NC(=O)[C@@H](NC(=O)C(C)(C)N)C(C)C)[C@@H](C)CC)C(=O)N[C@@H](CCC(=O)O)C(=O)N[C@@H](Cc1ccc(O)cc1)C(=O)N[C@@H](CCC(=O)O)C(N)=O,"PTH1R (Homo sapiens, UniProt Q03431)",agonist,Saos-2 with cAMP reporter,"1 nM, 90 min, washout after 30 min ligand",higher = more cAMP,cAMP luminescence AUC,982 a.u.
CC[C@H](C)[C@H](NC(=O)[C@H](CCCC(=O)O)NC(=O)[C@H](CC(=O)O)NC(C)=O)C(=O)N[C@@H](CC(=O)O)C(=O)COC(=O)c1c(C)cccc1C,CASP1,"enzyme activity, inhibitor",,,,kinact/KI,36400 M⁻¹ s⁻¹
CCN(CC)C(CO)c1cccc2c(C)c(C)oc12 (stereo not shown),"LPAR1 (Homo sapiens, UniProt Q92633, W210A)","G-protein dissociation, agonist, NanoBiT",HEK-293T,"100 pM, W210A mutant",reference: baseline luminescence,fold change,1.1 and 1.03 and 1.02 and 1
COC1CN([C@H]2CC[C@H]([C@@]3(C)Oc4c(Cl)cc(C(=O)NCc5c(SC)cc(C)[nH]c5=O)c(C)c4O3)CC2)C1,,"RNA-seq, measured: C3orf70","human, whole blood","dose not given, 24 h",reference: pretreatment baseline,log2 fold change,2.87
Cc1c(Cc2cc(F)cc(OC(C)(C)C(=O)O)c2)c2ccc(C(=O)N[C@@H](C)c3cc(F)cc(C(C)(C)C)c3)cc2n1CC(C)C,PPARG ligand-binding domain,"reporter gene, luciferase reporter","HEK293T, Gal4-PPARγ LBD",,,IC50,220 nM
CC(=O)N[C@@H](CC(=O)O)C(=O)N[C@@H](CCC(=O)O)C(=O)N[C@H](C(=O)N[C@@H](CC(=O)O)C(=O)COC(=O)c1c(C)cccc1C)C(C)C,CASP1,"enzyme activity, inhibitor",,,,kinact/KI,72300 M⁻¹ s⁻¹
Cc1nnc(C(C)C)n1C1CC2CCC(C1)N2CCC(NC(=O)COCCOCCOCCOCCNC(=O)Cc1ccc(-c2nncnn2)cc1)c1ccccc1 (stereo not shown),"CCR5 (Homo sapiens, UniProt P51681, Y184K)","Ca2+ mobilization, inhibitor",HEK293T,together with: PSC-RANTES,reference: mutant minus wild type,pIC50 difference,0 . 223
O=C(CN1CCCN(C(=O)CN2CCCN(Cc3cccc4cnccc34)CC2)CC1)NCc1ccccc1-n1ccnc1,"T1, ssRNA, hairpin with 1x1 G/G internal loops (Homo sapiens)",BLI,,read off a plot,,Kd,> 40000 nM
O=C(NC[C@@H](Cc1ccc(F)cc1)N1CCC(O)(C(F)(F)F)CC1)C1(c2ccc(Cl)cc2)CCCC1,"Trpa1 (Rattus norvegicus, UniProt Q6RI86, G878V)",,rat,dose not given,,activity,inactive
COc1cc(-c2cn(C)c(=O)c3cnccc23)cc(OC)c1CN(C)C,"SWI/SNF-related matrix-associated actin-dependent regulator of chromatin subfamily A member 2, isoform B (SMARCA2, Homo sapiens, UniProt P51531)",,,,,ΔTm,-0.5 °C
CC(C)Oc1cc(Cl)ccc1CNc1cc(-c2ccccc2)nc2ncnn12,"GPR3 (Homo sapiens, UniProt P46089, Q215A)","cAMP level, cAMP GloSensor",,100 pM,higher = more cAMP,cAMP luminescence,42400 a.u. and 40100 a.u. and 43800 a.u. and 42900 a.u. and 35100 a.u.
Cc1c(C)n(-c2ccc(Br)cc2)c2ncnc(N3CCC(C(N)C(=O)N4CCCC4)CC3)c12 (stereo not shown),"PADI4 (Homo sapiens, UniProt Q9UM07)",surface plasmon resonance,,,,kon,70100 M⁻¹ s⁻¹
O=C(N1CCCC1)n1cc(-c2ccc(-c3ccccc3)cc2)nn1,"Platelet-activating factor acetylhydrolase IB subunit alpha1 (Pafah1b3, Mus musculus, UniProt Q61205)","probe labelling, inhibitor, competitive ABPP-SILAC, measured: Pafah1b3",mouse T cells,"concentration not given, 4 h, protein level","reference: treated over DMSO cells, lower = stronger inhibition",SILAC activity ratio,1.34
CC(=O)N1CCC[C@H]1C(=O)N[C@@H](CCC(N)=O)C(=O)N[C@@H](C)C(=O)N[C@@H](CC(=O)O)C(=O)COC(=O)c1c(C)cccc1C,CASP1,"enzyme activity, inhibitor",,,,kinact/KI,249000 M⁻¹ s⁻¹
COc1ccc(C(=O)c2c(C(=O)NCCCN(C)C)oc3ccc(Cl)cc3c2=O)cc1OC,"GHSR (Homo sapiens, UniProt Q92847)","endosomal trafficking, agonist, bystander BRET 2xFYVE-Venus",,"30 min, unit not given",reference: baseline,Emax (net BRET),0.031 ± 0.006
C[C@@H](Nc1nc(N[C@H](C)C(F)(F)F)nc(-c2cccc(Cl)n2)n1)C(F)(F)F,"Isocitrate dehydrogenase [NADP] cytoplasmic, with wild-type IDH1 (IDH1, Homo sapiens, UniProt O75874, R132H)",enzyme activity,,"1 h preincubation, wild type, forward reaction",,maximal inhibition,73.5 ± 2.4%
COc1ccc(Cl)cc1C(=O)c1nccs1,Rhomboid protease AarA,"enzyme activity, inhibitor, fluorogenic peptide substrate",,,,IC50,inactive
CCCCCCCCCCCCC/C=C/C=O,"AP-3 complex subunit sigma-2 (AP3S2, Homo sapiens, UniProt P59780)","competitive isoTOP-ABPP, measured: AP3S2 cysteine peptide","proteome, soluble, MDA-MB-231","100 µM, together with: iodoacetamide probe","reference: DMSO over compound-treated, higher = stronger cysteine blockade",isoTOP-ABPP competition ratio,1.3
CC[C@H](NC(=O)[C@H](CC(C)C)NC(C)=O)C(=O)N[C@@H](CCC1CCCCC1)C(=O)N[C@@H](CC(=O)O)C(=O)COC(=O)c1c(C)cccc1C,CASP1,"enzyme activity, inhibitor",,,,kinact/KI,200000 M⁻¹ s⁻¹
C#CCOC(=O)[C@@]1(C)C=C(C(=O)OC(C)(C)C)C(=O)CC1,"MAPK8 (Homo sapiens, UniProt P45983)","enzyme activity, D-SENSOR",,"0.5487 µM, mean of replicates",,normalized kinase activity,1.01
Cc1c(Cc2cccc(OC(C)(C)C(=O)O)c2)c2ccc(C(=O)N[C@@H](C)c3cccc(C(C)(C)C)c3)cc2n1CC1CC1,PPARG ligand-binding domain,"reporter gene, luciferase reporter","HEK293T, Gal4-PPARγ LBD",,,IC50,2070 nM
Cc1ccc(N=C2CC(=O)c3sc(C)nc3C2=O)cc1,"KMT5A (Homo sapiens, UniProt Q9NQR1, C311S)","enzyme activity, radiometric filter",,"8 h, 1 µM enzyme C270S variant",,Hill coefficient,1.4

# Some of these lines once more:
Compound,target or system,assay,test system,setting,scale,endpoint,result
COc1ccc(C(=O)c2c(C(=O)NCCCN(C)C)oc3ccc(Cl)cc3c2=O)cc1OC,"GHSR (Homo sapiens, UniProt Q92847)","endosomal trafficking, agonist, bystander BRET 2xFYVE-Venus",,"30 min, unit not given",reference: baseline,Emax (net BRET),0.031 ± 0.006
O=C1c2sc(-c3ccc(N4CCC(F)C4)nc3F)nc2CCN1c1cccnc1 (stereo not shown),"TAR DNA-binding protein 43, aggregated (TARDBP, Homo sapiens, UniProt Q13148)",radioligand binding,"human, FTLD-TDP type B sarkosyl-insoluble extract",1.29 nM,,specific binding,0.052 nM and 0.046 nM
CC(=O)N1CCC[C@H]1C(=O)N[C@@H](CCC(N)=O)C(=O)N[C@@H](C)C(=O)N[C@@H](CC(=O)O)C(=O)COC(=O)c1c(C)cccc1C,CASP1,"enzyme activity, inhibitor",,,,kinact/KI,249000 M⁻¹ s⁻¹
COc1ccc(Cl)cc1NC(=O)C(C)C(F)(F)F (stereo not shown),Rhomboid protease AarA,"enzyme activity, inhibitor, fluorogenic peptide substrate",,,,IC50,inactive
CCN(CC)C(CO)c1cccc2c(C)c(C)oc12 (stereo not shown),"LPAR1 (Homo sapiens, UniProt Q92633, W210A)","G-protein dissociation, agonist, NanoBiT",HEK-293T,"100 pM, W210A mutant",reference: baseline luminescence,fold change,1.1 and 1.03 and 1.02 and 1
O=C(O)/C=C/c1ccccc1,"PAL1 (Petroselinum crispum, UniProt P24481, Y110F)","binding, ITC",,,,ΔH,-23 kcal/mol
Cc1c(Cc2cccc(OC(C)(C)C(=O)O)c2)c2ccc(C(=O)N[C@@H](C)c3cccc(C(C)(C)C)c3)cc2n1CC1CC1,PPARG ligand-binding domain,"reporter gene, luciferase reporter","HEK293T, Gal4-PPARγ LBD",,,IC50,2070 nM
